Published values of several laboratories.
Compare with care: the assays were run in different laboratories. Values joined by “and” are separate records of one study, mostly repeats; a detail may differ. ± gives the spread as reported.

COCCCOc1cc2c(cc1OC)-c1cc(=O)c(C(=O)O)cn1[C@H](C(C)C)C2
tissue concentration (CD-1 mouse, liver; oral, 10 mg/kg): > 10000 ng/g

OCc1nc2ccc(NCc3ccc(C(F)(F)F)cc3)cc2[nH]1
tissue concentration (Balb/c mouse, male, heart; oral, 10 mg/kg, 6 h): 133 ± 26.8 ng/g

O=c1cc(-c2ccc(O)cc2)oc2c([C@@H]3OC[C@H](O)[C@H](O)[C@H]3O)c(O)c([C@@H]3O[C@H](CO)[C@@H](O)[C@H](O)[C@H]3O)c(O)c12
tissue concentration (UHPLC-MS/MS; C57BL/6J mouse, liver; oral, dose not given): 9.32 ng/g

COc1cccc(OC)c1-c1cc(C(=O)NC2(C(=O)O)C3CC4CC(C3)CC2C4)nn1-c1ccc(C(=O)N(C)CCCN(C)CCCN(C)C(=O)CN2CCN(CC(=O)[O-])CCN(CC(=O)[O-])CCN(CC(=O)[O-])CC2)cc1C(C)C.[177Lu+3] (stereo not drawn)
tissue uptake (mouse, HT-29 xenograft, kidney; 4 h post injection): 3.8 %ID/g

COc1cccc(OC)c1-c1cc(C(=O)NC2(C(=O)O)C3CC4CC(C3)CC2C4)nn1-c1ccc(C(=O)N(C)CCCN(C)CCCN(C)C(=O)CN2CCN(CC(=O)[O-])CCN(CC(=O)[O-])CCN(CC(=O)[O-])CC2)cc1C(C)C.[177Lu+3] (stereo not drawn)
tissue uptake (SCID mouse HT-29 xenograft, small intestine; iv, 4 h): 3.5 ± 0.6 %ID/g

CCc1c2c(nc3ccc(OC(=O)N4CCC(N5CCCCC5)CC4)cc13)-c1cc3c(c(=O)n1C2)COC(=O)[C@]3(O)CC
tissue concentration (mouse, colon; intraperitoneal, 50 mg/kg, 24 h): 15200 ± 7130 ng/g

CC(C)NCCCC[C@@H]1NC(=O)[C@H](Cc2ccc(O)cc2)NC(=O)[C@H](Cc2ccccc2)NC(=O)CC[C@H](C(=O)N[C@@H](CCCCNC(C)C)C(=O)N[C@@H](CCCCNC(=O)[C@H](CCC(=O)O)NC(=O)[C@H](CCC(=O)O)NC(=O)[C@H](CCC(=O)O)NC(=O)CN2CCN(CC(=O)O)CCN(CC(=O)O)CCN(CC(=O)O)CC2)C(N)=O)NC(=O)CNC(=O)[C@H](Cc2ccc3ccccc3c2)NC(=O)[C@@H](CCCNC(=N)N)NC1=O [gallium-68 labelled]
tissue uptake (mouse with Daudi xenograft, lung; intravenous, 2 h): 0.27 %ID/g

Cc1nc2ccc(OCc3ccc(C(F)(F)F)cc3)cc2[nH]1
tissue concentration (Balb/c mouse, male, liver; intravenous, 1 mg/kg, 72 h): 4.1 ± 2 ng/g

CSc1cc(C)nc(SC)c1NC(=O)CN1CCN(CCSc2nc3ccccc3[nH]2)CC1.Cl
tissue concentration (mouse Crl:CD1 (ICR), female, cerebrum; intranasal, 10 µL of CA solution once daily for 7 days, 120 min after last dose): 0.6 ng/g and 0.9 ng/g

A few entries again:
OCc1nc2ccc(NCc3ccc(C(F)(F)F)cc3)cc2[nH]1
tissue concentration (Balb/c mouse, male, heart; oral, 10 mg/kg, 6 h): 133 ± 26.8 ng/g
